Measured values pooled from the literature.
Every numbered part comes from another study and shows a few of its results, in no order.

Study 1
Target: Sal-like protein 4, full length isoform B (SALL4, Homo sapiens, UniProt Q9UJQ4-2, residues 1-616)
Method: universal PBM
Form: double-stranded DNA, one strand shown
Matrix: in vitro
Tested at: not given
Notes: 8-mer, flanks averaged, mean of replicates
Direction: higher = stronger binding
For `TACTGCAA`, the E-score was 0.139.
For `GATCTGTA`, the E-score was 0.00297.
For `CGTTCCCC`, the E-score was -0.264.
The E-score of `CAATTGCA` is reported as 0.16.
With `GACGGAGA` the E-score was -0.0717.
With `ATTCTTGC` the E-score was 0.0898.
For `GCATTACC`, the E-score was -0.0235.
`GTATGGGA` gave an E-score of -0.0684.

Study 2
Target: Ras GTPase-activating protein-binding protein 1, full length (G3BP1, Homo sapiens, UniProt Q13283)
Sequence of UniProt Q13283 (whole entry, looked up): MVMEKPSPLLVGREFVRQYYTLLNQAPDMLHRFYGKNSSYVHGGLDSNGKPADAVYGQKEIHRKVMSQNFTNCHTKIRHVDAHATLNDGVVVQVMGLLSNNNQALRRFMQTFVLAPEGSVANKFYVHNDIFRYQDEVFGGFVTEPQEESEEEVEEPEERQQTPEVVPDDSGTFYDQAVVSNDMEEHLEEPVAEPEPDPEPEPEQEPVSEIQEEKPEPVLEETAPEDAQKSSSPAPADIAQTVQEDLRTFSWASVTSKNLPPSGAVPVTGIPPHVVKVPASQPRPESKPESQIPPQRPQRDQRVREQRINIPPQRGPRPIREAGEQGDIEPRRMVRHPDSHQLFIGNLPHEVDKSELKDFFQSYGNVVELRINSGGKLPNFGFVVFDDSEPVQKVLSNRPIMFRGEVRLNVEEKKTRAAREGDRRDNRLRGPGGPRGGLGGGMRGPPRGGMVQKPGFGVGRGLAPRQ
Method: RNA Bind-n-Seq
Form: RNA
Matrix: in vitro
Tested at: 200 nM
Notes: whole 134-nt RNA, ends assumed
With: 150 mM LiCl
Relative to: input library
Direction: higher = stronger binding
All molecules: 7-deaza-guanosine replaces G
`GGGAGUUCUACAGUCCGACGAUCUCCUGUGCUACACAUCGUAUGUACCGAAUCGGGUUUUUGGGAAAAAAAGGGUUUUUGGGAAAGUAUUAUGUUACGCCGUUCGGAUCUGCAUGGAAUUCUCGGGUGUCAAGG` has a log2 enrichment of -2.17.
`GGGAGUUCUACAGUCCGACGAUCUGGCCCUGGUGGCAUGCGGGGAGGAAGAGGUGGUCUCAUGGAUCGUGGUGGUCCCGGUGGAAUGUUCAGAGGUGGCCGUGGUGGAGACAGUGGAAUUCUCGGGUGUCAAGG` gave a log2 enrichment of 0.39.
`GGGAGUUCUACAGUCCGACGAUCUCAAGUCCUGUGCUACACAUCGUAUGUACCGAAUCGGGGCCGGCCGGGCCGGGGAAAGUAUUAUGUUACGCCGUUCGGAUCUGCACUUCCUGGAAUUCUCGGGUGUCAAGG` gave a log2 enrichment of 0.704.
`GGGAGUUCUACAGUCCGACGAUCCCUGUGCUACACAUCGUAUGUACCGAAUCGGGGUUUUUGGGGAAAAAAAGGGGUUUGGGGAAAGUAUUAUGUUACGCCGUUCGGAUCUGCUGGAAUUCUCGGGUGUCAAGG` gave a log2 enrichment of -1.32.
The log2 enrichment of `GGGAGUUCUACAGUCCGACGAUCAAGUCCUGUGCUACACAUCGUAUGUACCGAAUCGGGAAAAAAAGGGUUUGGGAGGGAAAGUAUUAUGUUACGCCGUUCGGAUCUGCACUUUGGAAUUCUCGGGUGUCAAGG` is reported as -0.911.
For `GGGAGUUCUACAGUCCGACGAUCCAAGUCCUGUGCUACACAUCGUAUGUACCGAAUCGGUUUGGGGUUUGGUUUGGGGAAAGUAUUAUGUUACGCCGUUCGGAUCUGCACUUCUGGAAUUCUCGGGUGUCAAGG`, the log2 enrichment was -0.703.

Study 3
Target: Interferon regulatory factor 5, full length, phosphomimetic (IRF5, Homo sapiens, UniProt Q13568-2, residues 1-514, K96S/S451D/S453D/S456D/S462D)
Method: protein-binding microarray
Form: double-stranded DNA, one strand shown
Matrix: in vitro
Tested at: 250 nM
Notes: 60-bp whole probe
With: salmon DNA 0.4 mg/ml
Relative to: random background probes
Direction: higher = stronger binding
Shared flanks, not repeated: GCCTAGCAC … GTGCTAGGTCTTGATTCGCTTGACGCTGCTG
With `GACGACTCCAGTTTCGAGAC` the log fluorescence was 4.85 z-score.
With `GACGGACTAGGTTTCGGGAC` the log fluorescence was 2.58 z-score.
For `GACGATATCAGTCTCGAGTC`, the log fluorescence was 1.48 z-score.
`GACGAATTCAGTCTCGAGAC` has a log fluorescence of 0.161 z-score.
The log fluorescence of `TCATCTTTTTTGTTCCAACT` is reported as 1.24 z-score.
With `TCATCCTTTACTTTCTTACT` the log fluorescence was 1.8 z-score.
The log fluorescence of `TCAATTTTCTCTGTTCTACT` is reported as 1.29 z-score.

Single results of other studies
The fold induction of `PhoQ, residues 284 288 289 292 302 303 AGHLVA` is reported as 1.33 (PhoP, residues 12 14 15 18 19 TPWLV (Escherichia coli, UniProt P23836); Sort-seq, measured: YFP reporter; E. coli; PhoQ-PhoP variant library, with: 10 µM Mg2+; relative to: high Mg2+ state, higher = stronger signaling).

A few entries again (study 3):
With `GACGGACTAGGTTTCGGGAC` the log fluorescence was 2.58 z-score.
With `GACGACTCCAGTTTCGAGAC` the log fluorescence was 4.85 z-score.
With `TCATCCTTTACTTTCTTACT` the log fluorescence was 1.8 z-score.
